Published values collected from several papers.
Lines come from different studies, so protocols differ. ± marks the error that the study gave.
Sample: plasma

For `Cc1nc2cccc(OCC(C)(C)C(=O)NC(C)C)c2c(N)c1C(=O)O`, the Cmax was 77.1 ± 41.7 ng/mL (female Sprague-Dawley rat; oral gavage, 30 mg/kg, day 7).
With `CS(=O)(=O)Nc1ccc(C(=O)O[C@@H](Cc2c(Cl)c[n+]([O-])cc2Cl)c2ccc(OC(F)F)c(OCC3CC3)c2)cc1OCC1CC1` the Cmax was 0.165 ng/mL (human; inhaled, 100 µg once daily, day 7, single-dose dry powder inhaler).
For `COc1cccc(-c2n[nH]c(SCc3ccccn3)n2)c1OC`, the Cmax was 6230 ng/mL (Sprague-Dawley rat, both sexes; oral, diet, 100 mg/kg/day, day 7).
`CCCC[C@H](NC(C)=O)C(=O)N[C@H]1CCC(=O)NC[C@@H](C(=O)N[C@@H](Cc2c[nH]c3ccccc23)C(N)=O)NC(=O)[C@H](CCCNC(=N)N)NC(=O)[C@@H](Cc2ccccc2)NC(=O)[C@H](Cc2c[nH]cn2)NC1=O` has a Cmax of 1280 ng/mL (beagle dog, female; subcutaneous, 40.0 mg/kg daily, day 14).
With `CCCOc1ccc([C@H]2CNC(=O)N2c2ccc3[nH]cnc3c2)cc1` the Cmax was 9680 ng/mL (human; oral, 1800 mg, single dose, fasted, healthy volunteers).
The Cmax of `Cn1c(C(F)(F)F)cc(=O)n(-c2cc(Oc3cccnc3OCC(=O)O)c(Cl)cc2F)c1=O` is reported as 7050 ng/mL (beagle dog, female; oral capsule, 1000 mg/kg/day epyrifenacil, week 13, 90-day study).
With `CNCc1ccc(-c2[nH]c3cc(F)cc4c3c2CCNC4=O)cc1` the Cmax was 393 ng/mL (human, fed high-fat meal; oral, 300 mg, cycle 1 day 1, single dose, median).
`Cc1cc(Nc2cc3ncccc3c(N[C@@H]3C[C@H]4CC[C@@H](C3)N4CCC#N)n2)n[nH]1` has a Cmax of 71.9 ng/mL (Sprague-Dawley rat, male; oral, 1000 mg/kg/day, last day of 13 weeks).
`O=C1N=C(N2CCOCC2)CN1c1ccc(Cl)cc1` gave a Cmax of 19800 ng/mL (beagle dog, both sexes; oral, 30 mg/kg, tablets, fasted, day 0).

Repeated from above:
With `CNCc1ccc(-c2[nH]c3cc(F)cc4c3c2CCNC4=O)cc1` the Cmax was 393 ng/mL (human, fed high-fat meal; oral, 300 mg, cycle 1 day 1, single dose, median).
